Experimental data pooled from the literature.
Numbered parts are unrelated; each lists some results of a single study. Substitutions count along the parent as printed.

Sample 1 — technique: competition protein-binding microarray; molecule type: double-stranded DNA, one strand shown; matrix: in vitro; tested at: 2 µM; together with: Pho4 competitor, 0.05 µM; reading: higher = stronger binding; shared flanks, not repeated: … GTCTTGATTCGCTTGACGCTGCTG
Target: Centromere-binding protein 1, full length, His-tagged (CBF1, Saccharomyces cerevisiae, UniProt P17106, residues 1-351)
Chain of UniProt P17106 (whole entry, looked up): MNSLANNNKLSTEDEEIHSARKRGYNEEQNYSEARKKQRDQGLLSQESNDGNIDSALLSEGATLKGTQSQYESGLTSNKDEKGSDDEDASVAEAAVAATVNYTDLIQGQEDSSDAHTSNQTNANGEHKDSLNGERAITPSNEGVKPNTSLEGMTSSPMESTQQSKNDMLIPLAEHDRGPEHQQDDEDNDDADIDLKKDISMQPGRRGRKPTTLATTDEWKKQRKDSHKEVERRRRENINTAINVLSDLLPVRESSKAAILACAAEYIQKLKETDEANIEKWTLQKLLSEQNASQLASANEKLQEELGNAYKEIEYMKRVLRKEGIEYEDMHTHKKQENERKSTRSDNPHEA
Notes: whole 60-bp probe, lowest competitor level
Strand	fluorescence intensity [a.u.]
CTTCTGTAAATTTGTACTGTGGGTGGACGCGCCCCG	80.3
CGGGGTTAAGTTTGGAGGGTGGGTGGCTTGCAGCAG	84.6
CTTCTGTAAATTTGTGACGTGGGTGGACGCGCCCCG	82.4
ATGAATGCGGACCATCACCTGCAACAGCAGCAGCAA	79.1
CTTTCCCGATCTTGCTTTGTGGGTGTAGCACATTTG	65.9
GTACTGCATCTTATTCCCGTGCCAGGGTCTCTGGGT	88.8
TTGTAGTTATATACCCACGTTTGCTGGGTCTAACGA	68.5
TGGGGCCCGCCGTCCAACGTGCGGATACCGTACCCT	46.1
CTTTCGCTGGAAAAGCACGTCCTCGCTAAGAAATTT	75
AAATTACTAAGTTGTCACACAACTTACCCCGTATGA	86.5
GTTTCAAAAACCGGCCACGTACCCAAAGGTCGCCCG	52.7
AGGTTTACACAATCGCACGTGATGGTATATTTGCCA	4610
TTTTACGGACATAAGAACGTGCCGACCATTCTGGGA	116
CGTCCTAGTGATTGCAGAGTGGGTGCCATGAGGAAG	88.8
CTTGTTATGTGGGAGCCCGTGAGAGGCTTGAAGTGG	85.7
AAATTACTAAGTTGAACGGTGGGTGACGCCGTATGA	56.1
CTTTCCCGATCTTTTCACGTGCAGTTAGCACATTTG	855

Sample 2 — technique: Sort-seq; measured: YFP reporter; matrix: E. coli; notes: PhoQ-PhoP variant library; together with: 10 µM Mg2+; relative to: high Mg2+ state; reading: higher = stronger signaling
Molecule: PhoQ, residues 284 288 289 292 302 303 NLGVHL
target	fold induction
PhoP, residues 12 14 15 18 19 HHYTI (Escherichia coli, UniProt P23836)	14.8
PhoP, residues 12 14 15 18 19 AYFRS (Escherichia coli, UniProt P23836)	12.1
PhoP, residues 12 14 15 18 19 SFCSL (Escherichia coli, UniProt P23836)	9.54

Sample 3 — target: CCNB2, cyclin fold, Cln2 fusion (human); technique: yeast growth competition, sequencing; matrix: yeast; notes: strong parent motif; relative to: not given; reading: higher = stronger binding
Parent: E2F1 docking peptide (human); PPVKRRLDFETDH
Variant	normalised enrichment score
PPVKRRLDFELDH [T11L]	3.63
PPVNRRLDFETDH [K4N]	2.45
PPVKRRLWFETDH [D8W]	2.34
PPVIRRLDFETDH [K4I]	1.76
PPVLRRLDFETDH [K4L]	0.308
PGVKRRLDFETDH [P2G]	3.59
PPVKRRLDFETTH [D12T]	3.41
PPVKRMLDFETDH [R6M]	2.43
PPVKRRLDFETHH [D12H]	3.25
PPVKRRLIFETDH [D8I]	2.86
PPVKRRLDCETDH [F9C]	0.144
PPVKRRTDFETDH [L7T]	0.049
PPVKRRLEFETDH [D8E]	3.16
PPVKRRLDFETMH [D12M]	3.51
PPVKRSLDFETDH [R6S]	1.68

Sample 4 — technique: RNA Bind-n-Seq; molecule type: RNA; matrix: in vitro; tested at: 1 µM; notes: whole 134-nt RNA, ends assumed; together with: 150 mM KCl; relative to: input library; reading: higher = stronger binding
Target: Ras GTPase-activating protein-binding protein 1, C-terminal RGG region (G3BP1, Homo sapiens, UniProt Q13283)
Chain of UniProt Q13283 (whole entry, looked up): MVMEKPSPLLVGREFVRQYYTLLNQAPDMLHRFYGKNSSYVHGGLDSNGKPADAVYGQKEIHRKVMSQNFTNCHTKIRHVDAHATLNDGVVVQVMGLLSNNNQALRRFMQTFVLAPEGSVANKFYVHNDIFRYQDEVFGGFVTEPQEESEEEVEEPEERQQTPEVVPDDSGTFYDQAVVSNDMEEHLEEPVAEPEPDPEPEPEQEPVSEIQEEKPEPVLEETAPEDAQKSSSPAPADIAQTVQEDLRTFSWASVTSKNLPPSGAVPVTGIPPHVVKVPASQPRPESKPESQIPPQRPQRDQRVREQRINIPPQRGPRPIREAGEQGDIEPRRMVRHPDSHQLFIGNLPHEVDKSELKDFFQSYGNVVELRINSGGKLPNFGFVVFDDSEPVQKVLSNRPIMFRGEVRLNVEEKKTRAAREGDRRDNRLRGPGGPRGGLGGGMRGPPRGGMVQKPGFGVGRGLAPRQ
Shared flanks, not repeated: GGGAGUUCUACAGUCCGACGAUC … UGGAAUUCUCGGGUGUCAAGG
Strand	log2 enrichment
AAGUCCUGUGCUACACAUCGUAUGUACCGAAUCGGGGUGGGGAAAGGGGAAAGGGGAAAGUAUUAUGUUACGCCGUUCGGAUCUGCACUU	3.2
CCUGUGCUACACAUCGUAUGUACCGAAUCGGGGUUUUUGGGGUUUUUUUGGGGUUUGGGGAAAGUAUUAUGUUACGCCGUUCGGAUCUGC	0.503
GUCCUGUGCUACACAUCGUAUGUACCGAAUCGGGAAAAAGGGGAAAAAGGGGAAAAAGGAAAGUAUUAUGUUACGCCGUUCGGAUCUGCA	-0.94
AGUCCUGUGCUACACAUCGUAUGUACCGAAUCGGGGAAAGGGGUGGGGUUUUUGGGGAAAGUAUUAUGUUACGCCGUUCGGAUCUGCACU	1.44
AGUGGGUUUGUUGAAGCAGUUGCUGGUGCAACAGCUAGGUUUGACUGAGAAGAGCGUUCAGGAAGACUGGCAACAUUUCCCAAGAUACAG	-1.97
GUCCUGUGCUACACAUCGUAUGUACCGAAUCAAAUUUUUAAACCCCCCCAAAUUUAAAAAAGUAUUAUGUUACGCCGUUCGGAUCUGCAC	-0.192
GUCCUGUGCUACACAUCGUAUGUACCGAAUCGGGUUUUUGGUUUUUGGGGUUUUUGGGAAAGUAUUAUGUUACGCCGUUCGGAUCUGCAC	-0.827
AAGUCCUGUGCUACACAUCGUAUGUACCGAAUCAAAUUUUUAAACCCAAAUUUAAAAAAGUAUUAUGUUACGCCGUUCGGAUCUGCACUU	-1.46
AGUCCUGUGCUACACAUCGUAUGUACCGAAUCAAAUUUAAACCCAAAUUUUUUUAAAAAAGUAUUAUGUUACGCCGUUCGGAUCUGCACU	-1.31
GUCCUGUGCUACACAUCGUAUGUACCGAAUCGGGAGGGAAAAAAAGGGUUUUUUUGGGAAAGUAUUAUGUUACGCCGUUCGGAUCUGCAC	-0.324
CUCAGACAACACGCACCCACACAGACACAGAGGGAAGGGGUUGGGAUGGGGACAGGGUGCACAGCAGGGCGGGGUAGGACCCCAGCCCCU	-0.237
AGUCCUGUGCUACACAUCGUAUGUACCGAAUCAAAUUUAAACCCAAACCCCCCCAAAAAAGUAUUAUGUUACGCCGUUCGGAUCUGCACU	-0.951
UCAAGUCCUGUGCUACACAUCGUAUGUACCGAAUCGGGUUUUUGGGUGGGUGGGAAAGUAUUAUGUUACGCCGUUCGGAUCUGCACUUCC	0.822
AAGUCCUGUGCUACACAUCGUAUGUACCGAAUCGGAAAAAAAGGUUUUUGGUUUGGAAAGUAUUAUGUUACGCCGUUCGGAUCUGCACUU	-2.39

For quick reference, copied from above (sample 1):
Strand	fluorescence intensity [a.u.]
ATGAATGCGGACCATCACCTGCAACAGCAGCAGCAA	79.1
CTTTCCCGATCTTGCTTTGTGGGTGTAGCACATTTG	65.9
GTACTGCATCTTATTCCCGTGCCAGGGTCTCTGGGT	88.8
